Measured values gathered from unrelated publications.
Every numbered part comes from another study and shows a few of its results, in no order. Changes are numbered by the printed parent chain.

Block 1
Target: CCNB1, cyclin fold, Cln2 fusion (human)
Method: yeast growth competition, sequencing
Matrix: yeast
Notes: strong parent motif
Baseline: not given
Direction: higher = stronger binding
Starting sequence: INSM1 docking peptide (human); PKAIRKLHFEDEV; partner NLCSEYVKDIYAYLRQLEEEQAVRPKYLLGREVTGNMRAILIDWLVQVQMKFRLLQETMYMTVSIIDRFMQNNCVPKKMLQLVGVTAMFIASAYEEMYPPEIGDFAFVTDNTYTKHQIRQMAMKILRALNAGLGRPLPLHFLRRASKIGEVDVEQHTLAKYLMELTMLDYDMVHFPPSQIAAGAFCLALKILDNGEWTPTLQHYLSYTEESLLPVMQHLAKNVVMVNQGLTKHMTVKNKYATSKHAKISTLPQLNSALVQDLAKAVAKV
Substitution	normalised enrichment score
D11M	0.874
F9D	-0.219
I4W	0.376
F9R	0.138
L7A	0.161
D11N	1.54
K6M	1.62
E12C	1.47
R5T	1.16
L7Q	-0.123
R5K	1.78
D11V	0.959
K6S	0.919
H8Q	2.29
E12V	1.22
D11H	1.17
A3K	0.858
R5D	0.0803
A3Q	0.32
F9L	0.536
L7H	-0.102
I4G	0.148
K6G	0.293
L7P	-0.199

Block 2
Substance: PhoQ, residues 284 288 289 292 302 303 NSMLDC
Method: Sort-seq
Item: YFP reporter
Matrix: E. coli
Notes: PhoQ-PhoP variant library
With: 10 µM Mg2+
Baseline: high Mg2+ state
Direction: higher = stronger signaling
target	fold induction
PhoP, residues 12 14 15 18 19 NYFRM (Escherichia coli, UniProt P23836)	9.69
PhoP, residues 12 14 15 18 19 QYFSL (Escherichia coli, UniProt P23836)	8.65
PhoP, residues 12 14 15 18 19 TQALL (Escherichia coli, UniProt P23836)	14.3

Block 3
Target: RING finger protein unkempt homolog, zinc fingers 1-6, GST-SBP tag (UNK, Homo sapiens, UniProt Q9C0B0, residues 30-357)
Method: RNA Bind-n-Seq
Form: RNA
Matrix: in vitro
Tested at: not given
Notes: RNA with constant flanks, human-mouse chimeric sites, ends assumed
Baseline: input RNA pool
Direction: higher = stronger binding
Target sequence (chain): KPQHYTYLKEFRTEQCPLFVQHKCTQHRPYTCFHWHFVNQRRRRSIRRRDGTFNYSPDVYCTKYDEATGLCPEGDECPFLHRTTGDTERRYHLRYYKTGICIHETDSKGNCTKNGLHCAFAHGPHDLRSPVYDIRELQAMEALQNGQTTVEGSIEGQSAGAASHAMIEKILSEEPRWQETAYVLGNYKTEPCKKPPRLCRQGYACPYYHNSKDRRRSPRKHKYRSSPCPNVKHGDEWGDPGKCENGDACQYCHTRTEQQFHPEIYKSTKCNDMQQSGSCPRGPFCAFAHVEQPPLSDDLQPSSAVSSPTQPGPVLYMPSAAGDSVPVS
Oligonucleotide	bound/input enrichment [ratio]
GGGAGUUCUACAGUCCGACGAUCUCAACAGACAACAUCAAAUACCAGCCUAAGGGGGGUCAGGUACAAAUUGUUACCAAGAAAAUAGACCUAAGCCAUGUGACAUCCAAAUGUGGCUCUCUAAAGAACAUCCGCCACAGGCCACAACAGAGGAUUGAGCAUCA	0.663
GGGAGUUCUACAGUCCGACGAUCCGAGACAAGACAUCCAGGAACAUGCGAGGCUCCCGGAUGAAUGGGUUGCCUAGCCCCACUCACAGCGCCCACUGUAGCUUCUACCGAACCAGAACCUUGCAGGCAUUGAGUAAUGAGAAGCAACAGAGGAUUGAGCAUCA	0.116
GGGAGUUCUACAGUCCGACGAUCUCCUGGUCGUGUCCCAGUGCAGGACGAUGUGAACAAAAACUCAAAGCGGACCCUCUAUUGUAGUUCUUGAUUCUCGAAAUGUGCUAUUAUUGUUUGUCUUUUUUUUUUUUUUUUUAAAGACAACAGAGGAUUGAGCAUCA	1.29
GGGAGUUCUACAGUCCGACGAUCGCGGCAGAAUCAUGGAGGACAUAAUGCAGCUCCCCAAGUCGCGCAUCAACGCCAGCAUGUUACCACAGUAUAUCGACCGGCCCGUGUGCUUCGUAGGGAAGCUGGAAAAGAUUCAUCCCACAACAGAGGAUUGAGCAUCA	0.0863
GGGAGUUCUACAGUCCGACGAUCACUCUUGACUCUUUCCAUCCUCUUCCUUUCCCUCUUGAUCUUCAAGGCCAUGAAUCCCAAAAUAACAGUCUUAGUGGCUAGCACCCAAACAGAGGUGGAAUAAAUCCAAACUGACAACUCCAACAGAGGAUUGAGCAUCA	0.79
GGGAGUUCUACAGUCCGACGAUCAACUUCGUGCAUCGGUUUCCCUUUGUAGCUGUUUCAAUUGGCUUCCUUGUGAAUAAAGAGAUGGAGUUUGGAGUUGUGUACAGCUGUGUGGAAGAUAAGAUGUACACCGGCAGGAAAGGGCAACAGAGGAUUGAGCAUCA	0.422
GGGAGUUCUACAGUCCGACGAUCAACUUCGUGCAUCGGUUUCCCUUUGUAGCUGUUUCAAUUGGCUUCCUUGUAAAUAAAGAGAUGGAGUUUGGAAUUGUGUACAGCUGUGUGGAAGAUAAGAUGUACACCGGCAGGAAAGGGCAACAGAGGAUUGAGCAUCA	0.355
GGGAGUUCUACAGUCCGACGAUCGAGUCGAGCAAACUUGAAACAAUUCGUUUUACAAAAAAGCUUCGGUGCACUUGCUUGGCGAUAGCAUUGGGGUUUUAUAGGUUCUGGAAGGAGAACUGACGAUGAUGCUGCCGCUGCUGCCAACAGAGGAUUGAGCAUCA	0.188
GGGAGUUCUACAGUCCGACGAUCAUCAAAUACUUUGGGGACAUCAUUAGUGUGGGACAGAGACUGUUGCAAGGAGCUCGGAUUUUAGGAAUUCCAGUUAUUGUAACAGAACAAUACCCCAAAGGACUUGGCAGCACCGUUCAACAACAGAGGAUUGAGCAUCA	0.253
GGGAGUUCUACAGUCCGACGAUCUGACAAGGGCACUGCAGAGCCAUGCCUUUCCUUGACAUACAGAAAAAGCUGGGCAUCAGCCUGGACCGGCACUUUAUGUUCCUAAGCGGUGAACAGCCCUACAAGAUCGCCGCUCGGUGCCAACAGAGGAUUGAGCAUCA	0.0757
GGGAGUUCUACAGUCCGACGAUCAUAGAUGAAAUUGAUGUGGACCAGGAAGGAAUUGCUGAAAUGAUCCUGGAUGAAAAUGCUAUAGCUCAGGUCCCACGCCCUGGCACAUCUUUGAAGCUCCCUGGCACUAACCAAACAGGACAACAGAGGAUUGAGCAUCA	0.382

Block 4
Target: Prothrombin, mature alpha-thrombin (F2, Homo sapiens, UniProt P00734)
Method: aptamer microarray, sandwich
Form: DNA with 2'F-ANA
Matrix: in vitro
Tested at: 200 nM
Notes: whole 15-mer aptamer, many near background
With: Cy3 exosite-II aptamer, 400 nM
Direction: higher = stronger binding
Oligonucleotide: GGTTGGTGTGGTTGG
Modification	mean fluorescence intensity [a.u.]
2'F-ANA at 1 5 6 8 9 11 13 14 15	47.9
2'F-ANA at 2 4 5 6 7 9 11 13 14	45.8
2'F-ANA at 1 2 6 7 9 10 11	55.3
2'F-ANA at 3 5 6 7 11 15	83.8
2'F-ANA at 1 2 4 5 8 9 14 15	253
2'F-ANA at 1 4 7 8 10 11 12	55.1
2'F-ANA at 2 8 11 12 13 14	176
2'F-ANA at 2 5 6 8 9 10 11 12 13 14 15	74.9
2'F-ANA at 2 4 5 6 7 9 13 14	49.3
2'F-ANA at 1 4 5 6 8 9 10 11 12 14	49.9
2'F-ANA at 3 4 8 9 10 11 12 14 15	178
2'F-ANA at 1 2 5 6 7 8 10 11 14	48
2'F-ANA at 4 5 9 11 12 13 14 15	46.3
2'F-ANA at 2 3 5 6 7 8 9 10 12 13	54.6
2'F-ANA at 1 2 4 7 8 9 10 11 13	59.6
2'F-ANA at 1 3 4 5 7 10 12 14 15	46.4
2'F-ANA at 1 4 5 7 13	55.6
2'F-ANA at 1 3 5 6 9 11 12 13 14	45.4
2'F-ANA at 1 3 5 7 9 10 12 14	46.7
2'F-ANA at 1 2 6 8 9 12 14	65.5
2'F-ANA at 1 5 6 7 8 9 11	63.3
2'F-ANA at 3 4 5 7 8 10 13	110
2'F-ANA at 1 2 4 5 6 8 11 14	45.2
2'F-ANA at 1 2 3 6 7 8 9 11 14	81.1
2'F-ANA at 1 2 4 7 9 10 11 12 13	57.2

Block 5
Target: Interferon regulatory factor 5, full length, phosphomimetic (IRF5, Homo sapiens, UniProt Q13568-2, residues 1-514, K96S/S451D/S453D/S456D/S462D)
Method: protein-binding microarray
Form: double-stranded DNA, one strand shown
Matrix: in vitro
Tested at: 250 nM
Notes: 60-bp whole probe
With: salmon DNA 0.4 mg/ml
Baseline: random background probes
Direction: higher = stronger binding
All sequences stand within: GCCTAGCAC … GTCTTGATTCGCTTGACGCTGCTG
Oligonucleotide	log fluorescence
TTCGGACTGGGGTTTCGGTTAGTGCTA	6.86 z-score
TAATTTCCATTTTCTAAATTCGTGCTA	2.59 z-score
TTAGGCCTGCTTTTCCTTTAGTGCTAG	0.0914 z-score
TCAGTTTTCTGGTTCCCACTGTGCTAG	1.28 z-score
CCAACTCTGTTTTCGCTTTCTGTGCTA	4.65 z-score
TTAGTACTGGGGTTTCGATTAGTGCTA	5.24 z-score
TTAGGACTGCGACTGCTTTAGTGCTAG	-0.436 z-score
TTAGGTTTCGGGTTTTGGTTAGTGCTA	8.11 z-score
GACGGTATCGCGTATCGGGACGTGCTA	0.987 z-score
TTAGGACTGAGACTGGATTAGTGCTAG	-0.514 z-score
GCCTTGTTCGTCGCTCCGCTGTGCTAG	-0.312 z-score
TTAGGTTTCGACACTGGGTCAGTGCTA	5.98 z-score
ATTTGTTTCCATTTTCTGAAGTGCTAG	2.74 z-score
GACCGTATCCTTTTCCTGACGTGCTAG	0.482 z-score
GACGGTTTCGCCTATCGGGACGTGCTA	4.96 z-score
TTAGATATCAGCTTCGATTAGTGCTAG	1.44 z-score
GACGATCCCAGTCTCGAGACGTGCTAG	-0.239 z-score
TTAGGTTTCGGTCTTGGTTAGTGCTAG	10.3 z-score

Block 6
Target: Histone acetyltransferase KAT6A, winged helix 2, GST fusion (KAT6A, Homo sapiens, UniProt Q92794, residues 85-181)
Method: protein binding microarray
Form: double-stranded DNA, one strand shown
Matrix: in vitro
Tested at: not given
Notes: 8-mer, flanks averaged, mean of 2 arrays, mostly near background
Baseline: not given
Direction: higher = stronger binding
Construct (chain): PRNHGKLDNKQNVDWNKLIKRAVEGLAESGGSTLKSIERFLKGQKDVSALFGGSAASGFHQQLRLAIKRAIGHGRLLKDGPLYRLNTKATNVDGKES
Oligonucleotide	E-score
AGGTGTCA	0.0394
CATGTTTA	-0.158
CAGTCTCG	-0.175
ACCTAGTC	-0.168
ATGCTGGG	0.108
AACGGTCA	-0.016
CTCTAAGA	-0.0479
TCACGAGA	-0.0242
GGGGAAGA	0.0698
AAACTTTC	0.0411
CGTTGAAA	0.0583
CATGCTGG	-0.0726
AAATGCTT	0.0563
AAGGTGCG	-0.038
TCAACGAA	0.123
CTTATTTA	-0.119
CGTCAACA	0.0768
GTCCACGA	-0.0126
ATTTGTTG	-0.0529
CCTTGAGC	0.00211
GCAACGCC	0.17
ACTCCTAC	-0.18

Block 7
Target: CREB3L4, bZIP domain (human)
Method: DHFR protein complementation
Matrix: yeast
Notes: single substitutions, most at no-binding floor
Baseline: wild-type JUN-FOS pair
Direction: higher = stronger binding
Starting sequence: JUN, bZIP domain (human); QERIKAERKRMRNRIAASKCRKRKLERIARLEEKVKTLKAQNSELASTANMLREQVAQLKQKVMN; partner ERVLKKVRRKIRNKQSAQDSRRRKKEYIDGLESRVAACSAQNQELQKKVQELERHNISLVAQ
Substitution	binding fitness [natural log]
L52S	-1.52
A40G	-1.43
E54Y	-1.55
Q58P	-1.53
A29L	-1.54
A40F	-1.47
T48I	-1.51
T48D	-1.21
V56P	-1.5
R53L	-1.59
L45H	-1.4
R30G	-1.37
Q41V	-1.51
A40E	-1.5
L38K	-1.54
E54P	-1.42
S47V	-1.3

Repeated from above (block 6):
Oligonucleotide	E-score
CAGTCTCG	-0.175
ACCTAGTC	-0.168
ATGCTGGG	0.108
AACGGTCA	-0.016
CTCTAAGA	-0.0479
TCACGAGA	-0.0242
GGGGAAGA	0.0698
AAACTTTC	0.0411
CGTTGAAA	0.0583
CATGCTGG	-0.0726
AAATGCTT	0.0563
AAGGTGCG	-0.038
TCAACGAA	0.123
CTTATTTA	-0.119
CGTCAACA	0.0768
GTCCACGA	-0.0126
ATTTGTTG	-0.0529
CCTTGAGC	0.00211
GCAACGCC	0.17
ACTCCTAC	-0.18
